Measurements of several laboratories.
Each numbered part is a random draw from the data of one study; scales do not carry over between parts. pIC50: −log10 of the molar value.

Series 1
Target: Replicase polyprotein 1ab, polymerase (rep, Severe acute respiratory syndrome coronavirus 2, UniProt P0DTD1)
Read-out: enzyme activity
Mode: inhibitor
Concentration: 20 µM
SMILES | inhibition
Nc1ccc2ncnc(NCCc3ccc(Oc4ccccc4)cc3)c2c1 | -5.77%
CCCc1nc2c(C)cc(-c3nc4ccccc4n3C)cc2n1Cc1ccc(-c2ccccc2C(=O)O)cc1 | 8.43%
CCO[C@@H](Cc1ccc(OCCc2ccc(OS(C)(=O)=O)cc2)cc1)C(=O)O | 12.2%
Cc1[nH]c(=O)c(C#N)cc1-c1ccc2nccn2c1 | -7.18%
O=c1[nH]c(=O)n(Cl)c(=O)n1Cl | 5.58%
Cn1cc(/C=C/C(=O)c2cccc(F)c2)cc1/C=C/C(=O)NO | 8.59%
COc1cc(N2CCC(N3CCN(C)CC3)CC2)ccc1Nc1ncc(Cl)c(Nc2ccccc2S(=O)(=O)C(C)C)n1 | -5.15%
NC(=O)N/N=C/c1ccc([N+](=O)[O-])o1 | 21%
CC[C@H](C)C(=O)O[C@H]1CCC=C2C=C[C@H](C)[C@H](CC[C@@H]3C[C@@H](O)CC(=O)O3)[C@H]21 | 2.45%
COC1=C(OC)C(=O)C(C/C=C(\C)CC/C=C(\C)CC/C=C(\C)CC/C=C(\C)CC/C=C(\C)CC/C=C(\C)CC/C=C(\C)CC/C=C(\C)CC/C=C(\C)CCC=C(C)C)=C(C)C1=O | -1.73%
CCOC(=O)O[C@]1(C(=O)OCCl)CC[C@H]2[C@@H]3CCC4=CC(=O)C=C[C@]4(C)[C@H]3[C@@H](O)C[C@@]21C | -1.18%
CCCCCCN(CCCCCC)C(=O)Cc1c(-c2ccc(Cl)cc2)[nH]c2ccc(Cl)cc12 | -5.58%
Clc1ccc(C(Cn2ccnc2)OCc2ccc(Sc3ccccc3)cc2)c(Cl)c1 (stereo not shown) | -6.4%
CCc1ccc(OCc2ccccc2C(=O)Nc2ccc3nc(C)cc(N)c3c2)cc1 | 0.91%
O=C(O)CCCCCCCCC(=O)O | 1.81%
COc1ccc([C@]2(C#N)CC[C@@H](C(=O)O)CC2)cc1OC1CCCC1 | -0.53%
Cc1ccc2c(c1)[C@]13CCCC[C@@H]1[C@H](C2)N(C)CC3 | 9.85%
CN1[C@@H]2CC[C@H]1C[C@@H](OC1c3ccccc3CCc3ccccc31)C2 | 10.5%
CCOC(=O)[C@@H](N)Cc1ccc(-c2cc(O[C@H](c3ccc(Cl)cc3-n3ccc(C)n3)C(F)(F)F)nc(N)n2)cc1 | -0.03%
CN1CCN(C(=O)c2cc3cc(Cl)ccc3[nH]2)CC1 | -4.41%
CCC(CC)CC1(C(=O)Nc2ccccc2SC(=O)C(C)C)CCCCC1 | 4.76%
Oc1ccc2c(c1)CC[C@H](c1ccccc1)[C@@H]2c1ccc(OCCN2CCCC2)cc1 | 0.34%
c1ccc2c(c1)OC[C@H](CNCCCOc1ccc3c(c1)OCO3)O2 | -17.1%
c1ccc(C2CNCc3ccccc32)cc1 (stereo not shown) | -14.3%
c1ccc(CCCCN2CCC(c3ccccc3)CC2)cc1 | -4.45%

Series 2
Cell line: HEK-293T/ACE2
Concentration: concentration not given
Time: 16 (unit not given)
Reference: vehicle
Structure (SMILES) | viability
CN(C)CCC[C@@]1(c2ccc(F)cc2)OCc2cc(C#N)ccc21 | 109%
CO[C@@]1(NC(=O)Cc2cccs2)C(=O)N2C(C(=O)O)=C(COC(N)=O)CS[C@@H]21 | 102%
CC(S)C(=O)NCC(=O)O (stereo not shown) | 104%

Series 3
Target: Phosphate system positive regulatory protein PHO4, full length, GST-tagged (PHO4, Saccharomyces cerevisiae, UniProt P07270, residues 1-312)
Method: competition protein-binding microarray
Form: double-stranded DNA, one strand shown
Sample: in vitro
Concentration: 2 µM
Setting: whole 60-bp probe, lowest competitor level
Added: Cbf1 competitor, 0.05 µM
Reading: higher = stronger binding
Shared flanks, not repeated: … GTCTTGATTCGCTTGACGCTGCTG
Residues (chain): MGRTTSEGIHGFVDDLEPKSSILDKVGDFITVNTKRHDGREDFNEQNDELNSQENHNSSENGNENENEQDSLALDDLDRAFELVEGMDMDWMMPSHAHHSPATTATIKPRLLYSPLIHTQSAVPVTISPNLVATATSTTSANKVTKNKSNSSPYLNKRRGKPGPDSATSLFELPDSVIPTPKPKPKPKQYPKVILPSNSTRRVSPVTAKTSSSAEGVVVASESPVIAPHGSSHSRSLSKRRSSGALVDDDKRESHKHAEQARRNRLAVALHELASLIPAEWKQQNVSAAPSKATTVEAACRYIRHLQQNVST
Sequence | fluorescence intensity [a.u.]
AAATTACTAAGTTGGCCCGTGGGTGACGCCGTATGA | 8580
AGTTACGGTTGCCATCACGTGTCGGTAGGATAAAGT | 19700
CATGGAAAAGCAAGTGCCGTGCCAGTTCCAACTAAG | 6240
CCGCACTCCTCTCCACACGGGATTCTCACCCTCTAT | 7430
CGGGGTTAAGTTTTTCACGTGGTGTGCTTGCAGCAG | 14400
GTTGAAGTCAAGTTGAACGTGATGGGATACTGATTT | 8250
CTTTCCCGATCTTGAACTGTGGGTGTAGCACATTTG | 4270
CTGCCATTCAAGCCAAGCGTGTCTGTATCCAAAAGA | 6230

Series 4
Target: Eukaryotic initiation factor 4A-I (EIF4A1, Homo sapiens, UniProt P60842, residues 1-406, full length assumed)
Sequence of UniProt P60842 (whole entry, looked up): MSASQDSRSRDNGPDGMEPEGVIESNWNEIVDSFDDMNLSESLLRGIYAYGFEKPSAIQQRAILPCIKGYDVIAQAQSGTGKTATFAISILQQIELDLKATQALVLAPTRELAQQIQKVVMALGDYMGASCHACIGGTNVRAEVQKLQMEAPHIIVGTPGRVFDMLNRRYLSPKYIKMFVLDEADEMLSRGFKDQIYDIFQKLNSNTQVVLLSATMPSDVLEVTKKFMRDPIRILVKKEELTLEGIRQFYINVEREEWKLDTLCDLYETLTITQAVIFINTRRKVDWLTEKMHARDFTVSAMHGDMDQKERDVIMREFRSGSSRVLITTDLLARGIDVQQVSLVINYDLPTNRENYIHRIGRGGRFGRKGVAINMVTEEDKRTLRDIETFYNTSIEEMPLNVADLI
Method: RNA Bind-n-Seq
Form: RNA
Sample: in vitro
Concentration: not given
Setting: 4-mer, random 30-nt RNA, single round
Added: RocA, ADP, phosphate
Reference: input library
Reading: higher = stronger binding
Sequence | 4-mer enrichment
GACA | 0.834 fold
UAUC | 0.645 fold
GAUC | 0.741 fold
GGUA | 0.985 fold
AUAU | 0.906 fold

Series 5
Target: Hepatocyte nuclear factor 3-alpha (Foxa1, Mus musculus, UniProt P35582, residues 1-468, full length assumed)
Method: EMSA with sequencing
Form: double-stranded DNA, one strand shown
Sample: in vitro
Concentration: 10 and 20 nM
Setting: whole designed probe, mean of two concentrations, ends assumed
Reference: negative control set to 0
Reading: higher = stronger binding
Shared flanks, not repeated: GTGAGCGGTGCCCATTGATGGGGAAC … TTTCACTGGGATCGTGGGGAC
Residues (chain): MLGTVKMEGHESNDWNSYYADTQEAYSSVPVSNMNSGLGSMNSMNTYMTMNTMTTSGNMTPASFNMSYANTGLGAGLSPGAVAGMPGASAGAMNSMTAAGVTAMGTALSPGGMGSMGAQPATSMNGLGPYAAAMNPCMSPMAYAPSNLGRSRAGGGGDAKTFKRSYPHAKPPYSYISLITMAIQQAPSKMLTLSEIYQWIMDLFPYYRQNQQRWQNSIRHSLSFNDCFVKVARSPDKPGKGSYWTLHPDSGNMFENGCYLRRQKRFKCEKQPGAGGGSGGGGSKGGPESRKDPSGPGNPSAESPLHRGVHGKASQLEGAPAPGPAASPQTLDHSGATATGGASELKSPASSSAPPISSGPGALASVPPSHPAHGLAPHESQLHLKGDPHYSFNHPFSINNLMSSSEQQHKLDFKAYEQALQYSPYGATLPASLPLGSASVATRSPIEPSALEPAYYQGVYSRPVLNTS
Sequence | normalised bound fraction [ratio]
GGCATGAAGCAGCTGCTATAACAGAATGTGAAGCTGGGAGGTCTTAACTCTTAGATATACTGTATTTTCTCCCTCAGGCTTGCATGAGTCACTGTTTACCTACAGAGAAGAAAGAGCACTGGTCTTTGTCAATAGCCCTCACTGAGTTGAGAGATAACAGTTTCCCCATGGGAATCCTTGGTATGGATTAGAT | 0.234
TGCACCACTCAGCCCCTCCTAGTCCGCTGGAGAAAGTGGCTGAGGGGGTGGTGGGGGATAATTGCATTTCCAAAGTCCGGGCAATCAGCCAATGTAAACAGGCACCAGCGTCTCTGTGTGGGCTCTCTAGGCAACAGGTAAAATACATCAAATACACACAATTTCCTGACATTCCAATGCATTTCTGCGTGAG | 0.284
TCATTCTACCTGAGGAGTTGATATCTGACAGGTCTACATCTGAATTATTGTAAATGTATGTATTTTCATATGAGCATGCAAAGACATTCAAAGTAATCTAAAATAAATGCTAATTAATTAAATTATAATGCAAAAGCAGGGCTTCCTCACCTACAACTTTGTTAAATTTAGATCTCTTTGGAAAACACATTGT | 0.0287
ATCTTCCCCCTCTTCCTTGCCCCACCAGCTCACCTTCCCGGGTTATTTGCAGATAGGAAAATAAATAAAGCCGGCATTCGTTAACCCTCTGTAGATCGCTTGTCCGACTTGCTCTGGATGAATCATGGTCCTTTGGCGACGCCAGGCTCCGGGAGAGCAAAGCACCGTGTCAGGGCCATGATCCGGGGTGGCC | 0.338
ATCTTCCCCCTCTTCCTTGCCCCACCAGCTCACCTTCCCGGGTTGTTTACTTTGAGCAAAGTAAACAAAGCCGGCATTCGTTAACCCTCTTCACGCGCATACTGCCAGAGCAAACAGATGAATCATGGTCCTTTGGCGACGCCAGGCTCCGGGAGAGCAAAGCACCGTGTCAGGGCCATGATCCGGGGTGGCC | 0.541
AGGTGAATTGGCTGCTTCCATCCTGGCTTGGAACTTCAGACATAGAAGCCTTGGGACTTTCTCAGGACTTTCTCCAGATCTGTCACATGCTCAGCAAACAAGCATCTCTGTGCTGACTCATGCCTTAGCCAGGGATGTTGGTGAAACTGTGTGTTGGTCTAGGTACCTAGCCCATGCTAGGTGCTCATCGAAT | 0.106
AACTATTATAAATAACAATTACAGAGGCGTATCAAAAAGGCTTTTAATTGAAGAGTATTTACAATTAAATTATAACAGAAAGAATACTGTAAAAGTAATCTAGTAAGTTCTTTTTGAAAAACAGGAATGTGTAACATTCAAAAAGACCACAAAAATTAATTTCTGTGTTACAGAATATTGAGAAATCCTATTC | 0.0953
TCAACTCAGACTGCTTGAAAAAGGAATAGTGAGTTCAAAGATGCAAAGATGCCAGCGGCTGCATGTTACATTTTTGAGAGGTAGCCTTCAAAGTAATCTAGAAAAATGGGATTTTTTATGTTAATATGTGATTCATTTTAGAAAGAATGTTTCTTCGCTTAGTCTCTCCACATAAGATACTTACAGGTTTCCA | -0.0846

Series 6
Target: Replicase polyprotein 1ab, main protease (rep, Severe acute respiratory syndrome coronavirus 2, UniProt P0DTD1)
Read-out: enzyme activity
Mode: inhibitor
Setting: no DTT
Compound | pIC50
CC[n+]1c(-c2ccccc2)c2cc(N)ccc2c2ccc(N)cc21 | < 4.70
C=C1c2cccc(O)c2C(=O)C2=C(O)[C@]3(O)C(=O)C(C(N)=O)=C(O)[C@@H](N(C)C)[C@@H]3[C@@H](O)[C@H]12 | < 4.70
O=C(O)c1c(Cl)c(Cl)c(Cl)c(Cl)c1-c1c2cc(I)c(=O)c(I)c-2oc2c(I)c(O)c(I)cc12 | < 4.70
